Experimental data collected from several papers.
Compare with care: the assays were run in different laboratories. ± marks the error that the study gave.

Substance | cell line | assay | setting | EC50 [µM]
CC12OC(=O)C1(C(O)C1C=CCCC1)NC(=O)C2CCSC#N (centres unmarked) | Jurkat | DNA fragmentation, propidium iodide flow cytometry | 24 h | 1
CC[C@H](C)[C@H](NC(=O)[C@H](CCC(=O)O)NC(=O)[C@H](CC(=O)O)NC(=O)CNC(=O)[C@H](CC(C)C)NC(=O)[C@H](CCCNC(=N)N)NC(=O)[C@H](CCCNC(=N)N)NC(=O)[C@H](CC(C)C)NC(=O)CNC(=O)[C@H](CCC(N)=O)NC(=O)[C@@H](NC(=O)[C@H](CCSC)NC(=O)[C@H](Cc1c[nH]c2ccccc12)NC(=O)[C@@H](NC(=O)[C@H](CCC(=O)O)NC(=O)[C@@H]1CCCN1C(=O)[C@H](CCCNC(=N)N)NC(C)=O)[C@@H](C)CC)[C@@H](C)O)C(=O)N[C@@H](CC(N)=O)C(=O)N[C@@H](C)C(=O)N[C@@H](Cc1ccc(O)cc1)C(=O)N[C@@H](Cc1ccc(O)cc1)C(=O)N[C@@H](C)C(=O)N[C@@H](CCCNC(=N)N)C(N)=O | Pfeiffer, permeabilized | mitochondrial depolarization, BH3 profiling, JC-1 | 3 h | > 100
COc1ccc2cc(CCC(C)=O)ccc2c1 | Kasumi-1 | cell proliferation, XTT |  | ~15
CC(C)CCC[C@@H](C)[C@H]1CC[C@H]2[C@@H]3CC[C@H]4C[C@@H](O[C@@H]5O[C@H](COS(=O)(=O)O)[C@@H](O[C@H]6O[C@H](COS(=O)(=O)O)[C@@H](O[C@H]7O[C@H](COS(=O)(=O)O)[C@@H](O[C@H]8O[C@H](COS(=O)(=O)O)[C@@H](OS(=O)(=O)O)[C@H](OS(=O)(=O)O)[C@H]8OS(=O)(=O)O)[C@H](OS(=O)(=O)O)[C@H]7OS(=O)(=O)O)[C@H](OS(=O)(=O)O)[C@H]6OS(=O)(=O)O)[C@H](OS(=O)(=O)O)[C@H]5OS(=O)(=O)O)CC[C@]4(C)[C@H]3CC[C@]12C | U-87 MG |  |  | 103 ± 2.95
Cc1cc(Nc2ccc(NC(=O)c3ccc(Nc4cc(-c5ccccc5)nc5ccccc45)cc3)cc2)nc(N)n1 | KG-1 | cell proliferation | 3 days, 15 % fetal calf serum | 1.3
COc1cc(F)c([C@@H]2CNC(=O)[C@H]2NC(=O)Nc2ccccc2)c(F)c1 | differentiated HL-60 | chemotaxis, agonist |  | 0.006
CC[C@H](C)[C@H](NC(=O)[C@H](CCC(=O)O)NC(=O)[C@H](CC(=O)O)NC(=O)CNC(=O)[C@H](CC(C)C)NC(=O)[C@H](CCCNC(=N)N)NC(=O)[C@H](CCC(N)=O)NC(=O)[C@H](CC(C)C)NC(=O)[C@H](CO)NC(=O)[C@H](CCC(N)=O)NC(=O)[C@@H](NC(=O)[C@H](CC(C)C)NC(=O)[C@H](Cc1c[nH]c2ccccc12)NC(=O)[C@@H](NC(=O)[C@H](CCC(=O)O)NC(=O)[C@@H]1CCCN1C(=O)[C@H](CCCNC(=N)N)NC(C)=O)[C@@H](C)CC)[C@@H](C)O)C(=O)N[C@@H](CC(N)=O)C(=O)N[C@@H](C)C(=O)N[C@@H](Cc1ccc(O)cc1)C(=O)N[C@@H](Cc1ccc(O)cc1)C(=O)N[C@@H](C)C(=O)N[C@@H](CCCNC(=N)N)C(N)=O | Bcl-2/Myc 2924, permeabilized | mitochondrial depolarization, BH3 profiling, JC-1 | 3 h | > 100
fibronectin | B16-F10 | cell spreading on coated substance | coating concentration | 0.007
CCCC(CCC)(C(=O)c1ccc(OCCN(C)C)cc1)c1ccccc1 | type 2 Gaucher disease patient cells, L444P/L444P | lysosomal calcium release | added: GPN | 4 to 4.4
CN(C)C/C=C/C(=O)Nc1cc2c(Nc3ccc(F)c(Cl)c3)ncnc2cc1O[C@H]1CCOC1 | A-431 | protein phosphorylation, phosphoproteomics |  | ~0.01
Nc1ccn([C@@H]2O[C@H](CO)[C@@H](O)C2(F)F)c(=O)n1 | ENT2 knockout | cell viability, MTT | 48 h, low affinity phase | 2880
CC1=C(C/C=C(\C)CCC[C@H](C)CCC[C@H](C)CCCC(C)C)C(=O)c2ccccc2C1=O | UBIAD1-knockout FIXgla-PC HEK293 cells | vitamin K-dependent carboxylation, ELISA, measured: FIXgla-PC |  | 0.0076
N=C(N)c1ccc(OCCCCCOc2ccc(C(=N)N)cc2)cc1 | WM-115, scrambled shRNA | cell growth, SYBR Green | high S100B | 11 ± 2
Nc1nc(Cl)nc2c1ncn2[C@@H]1O[C@H](CO)[C@@H](O)[C@@H]1F | ENT2 knockout | cell viability, MTT | 48 h, low affinity phase | 1230

Some of these lines once more:
Substance | cell line | assay | setting | EC50 [µM]
CC12OC(=O)C1(C(O)C1C=CCCC1)NC(=O)C2CCSC#N (centres unmarked) | Jurkat | DNA fragmentation, propidium iodide flow cytometry | 24 h | 1
